Assay results from different studies.
± gives the spread as reported.

CN1CCN(S(=O)(=O)c2cc([N+](=O)[O-])ccc2N(CCOS(C)(=O)=O)CCOS(C)(=O)=O)CC1  Tmax (naive female NSG mice, plasma; intraperitoneal, 5 mg/kg): 15 min
NC(=O)[C@@H]1CC(F)(F)CN1C(=O)c1ccc(N2CC(F)(F)C2)c(OCC2CC2)n1  Tmax (C57BL/6 mice; oral, 2.8 mg/kg): 60 min
CCC[C@@](N)(CO)CCc1ccc(OCCCCCC(C)C)cc1  Tmax (C57BL/6 mice; oral, 10 mg/kg): 60 min
Cc1nonc1Cn1nnc2c(N3CC[C@H](O)C3)nc(C(C)(C)C)nc21  Tmax (C57BL/6 mice; oral, 2.8 mg/kg): 15 min
C[C@H]1COCCN1c1nc(NCc2cccnc2C(F)(F)F)c2cccnc2n1  Tmax (SCID BALB/c mice; oral, 90 mg/kg): 45 min
Cn1c2cc([S+](C)[O-])sc2c2cnn(Cc3cccc(N)c3)c(=O)c21 (stereo not shown)  maximum inhibition (human coronavirus OC43; virus-induced cell killing; MRC-5; screen): 42.9%
C[C@H]1N=C(c2ccccc2F)c2cc(Br)ccc2-n2cnc(C(=O)O[C@@H]3O[C@H](C(=O)O)[C@@H](O)[C@H](O)[C@H]3O)c21  Tmax (Swiss Webster mice, blood; oral gavage, 100 mg/kg): 30 min
C=CC(=O)Nc1cccc(Nc2nc(Nc3ccc(NC4CN(CCF)C4)cc3OC)ncc2C(F)(F)F)c1  maximum inhibition (human coronavirus OC43; virus-induced cell killing; MRC-5; screen): 5.62%
COc1cc(C)[nH]c(=O)c1CNC(=O)c1c(C)n([C@H](C)C2CCN(CC(F)(F)F)CC2)c2ccccc12  Tmax (female CB17 SCID mice, HT-1376 xenograft, plasma; 75 mg/kg, day 1): 30 min
C[C@H]1N=C(c2ccccc2F)c2cc(Br)ccc2-n2cnc(C(=O)O)c21  Tmax (Swiss Webster mice, blood; oral gavage, 100 mg/kg): 20 min
OCc1ncc2n1-c1ccc(Cl)cc1C(c1ccccc1F)=NC2  Tmax (item: 1'-hydroxymidazolam; wild-type mice, plasma; iv, 500 mg/kg, 3 days, together with: midazolam 0.3 mg/kg, phenobarbital, 10 mg/kg pregnenolone 16α-carbonitrile): 10 min
CCN(CC)CCCC[C@H](NC(=O)[C@H](CC(C)C)NC(=O)[C@H](C)NC(=O)[C@H](Cc1ccccc1)NC(=O)c1ccc(C(C)(C)C)cc1)C(=O)N[C@@H](CO)C(=O)OC  Tmax (Swiss albino mice, male, blood; intraperitoneal, 10 mg/kg): 120 min
CC[C@H](C)[C@@H]1NC(=O)[C@@H]2CCCN2C(=O)[C@H](CC(C)C)NC(=O)[C@H](CC(C)C)NC(=O)CNC(=O)[C@@H](NC(=O)[C@@H](NC(=O)[C@H](CC(=O)O)NC(=O)CNC(=O)[C@@H](NC(=O)[C@H](C)NC(=O)CNC(=O)[C@H](CCCCN)NC(=O)[C@H](CC(C)C)NC(=O)[C@H](CC(C)C)NC(=O)[C@H](CCCCN)NC(=O)CNC(=O)[C@@H](NC(=O)[C@@H](N)CC(C)C)C(C)C)C(C)C)C(C)C)CSSC[C@@H](C(=O)O)NC1=O  Tmax (female C57BL/6 mice, plasma; intravenous, 10 mg/kg, two-compartment model): 13.8 ± 0.6 min

For quick reference, copied from above:
CCC[C@@](N)(CO)CCc1ccc(OCCCCCC(C)C)cc1  Tmax (C57BL/6 mice; oral, 10 mg/kg): 60 min
Cc1nonc1Cn1nnc2c(N3CC[C@H](O)C3)nc(C(C)(C)C)nc21  Tmax (C57BL/6 mice; oral, 2.8 mg/kg): 15 min
